Results from different studies.
Each numbered part is a random draw from the data of one study; scales do not carry over between parts.

Sample 1
Sequence: REASKSRVQLFKDDPM
Observed: yeast growth
Method: competitive growth deep sequencing
Molecule type: peptide
Notes: peptide tiling library
Reading: direction not given
Endpoint: enrichment score
human cyclin A2-Cln2 fusion; Saccharomyces cerevisiae: 0.918
human cyclin D3-Cln2 fusion; Saccharomyces cerevisiae: -1.39
human cyclin B3-Cln2 fusion; Saccharomyces cerevisiae: -1.51
human cyclin D2-Cln2 fusion; Saccharomyces cerevisiae: -0.65
Saccharomyces cerevisiae; unfused Cln2: -0.355
human cyclin B2-Cln2 fusion; Saccharomyces cerevisiae: 0.0591

Sample 2
Target: RING finger protein unkempt homolog, zinc fingers 1-6, GST-SBP tag (UNK, Homo sapiens, UniProt Q9C0B0, residues 30-357)
Chain of UniProt Q9C0B0 (30-357, looked up): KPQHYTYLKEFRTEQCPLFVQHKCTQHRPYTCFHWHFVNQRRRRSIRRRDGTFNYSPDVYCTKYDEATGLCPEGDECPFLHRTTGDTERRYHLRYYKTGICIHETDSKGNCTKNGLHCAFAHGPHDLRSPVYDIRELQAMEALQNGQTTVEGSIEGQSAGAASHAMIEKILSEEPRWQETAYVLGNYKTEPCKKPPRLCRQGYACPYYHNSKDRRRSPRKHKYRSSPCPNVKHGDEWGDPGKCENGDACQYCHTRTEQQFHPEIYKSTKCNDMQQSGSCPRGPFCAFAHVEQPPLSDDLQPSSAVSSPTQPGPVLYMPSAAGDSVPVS
Method: RNA Bind-n-Seq
Molecule type: RNA
Matrix: in vitro
Concentration: not given
Notes: RNA with constant flanks, ends assumed
Baseline: input RNA pool
Reading: higher = stronger binding
Endpoint: bound/input enrichment
Constant ends, left off below: GGGAGUUCUACAGUCCGACGAUC … CAACAGAGGAUUGAGCAUCA
AAAAGAAAAGCCUCUAAAUAGGGUUUCAUGUGGUGCAGGGUUAUAAACCUGCUUUAUCUUUCCGGAUUAUUCCUAAAUGCAUCUUCUUUAUAAACUUGACUUGCUAUAUCAGCAAGAUAA: 0.204 ratio
UCUUUUCCUCUGUAUUUACAUAUACUUUAUGUAUCAAGUGUGUGUGUGUAUGUGUGUGCUUUCCGCUCCAAGCAAACCUGAGUUUGGAUAAAGGGGAACUAAACUACAAAUUAUGUCUAU: 0.158 ratio
GGCAGCAAAAGGCACAGUAGGUCAAGAAGCAGGUCUCGAUCCCGGACCAGAAGUUCCUCCCGGUCUCGUAGCCGAUCCCGUUCCCGUAGUCGCAAAUCUUACAGCCGGUCAAGAAGCAGG: 0.299 ratio
CAUGUAACUGUGAAGAAGCUGUUUGUUGGCGGAAUUAAAGAAGAUACUGAGGAACAUCACCUCCGAGAUUACUUUGAGGAAUAUGGAAAAAUUGAUACCAUUGAGAUAAUUACUGAUAGG: 0.408 ratio
GUACUUGCUGUAGGAUACAAGCUGUCUUUGCACUAGCUCUAAAGAAGAAUUUCUUCUGGUUUCCGAGAACUGAUUUUGUUUUAGCAUUAAACUGUUCAAGUUUUUGUACGUAGAUAUCUA: 0.666 ratio
GAGGAGAAGCAGCGGGAGCUGGCCCGGAAGGGCUCCCUGAAGAAUGGCAGCAUGGGCCGCCCUGUCAACCAGCAACCCAAGAAGAACAAUGUCAUGGCCCGAACAAGGCUGGUCGUCCCC: 0.154 ratio
CAGAGCCCUCCAUAUAUGGGUGCCACAUCUCCACCCAAAGACAAGAAACGCCCAACACCUUCCGAGAUUGGUUACUCUUCUUCUCACCUUCGGGCAGACCCCACAGUCCAGCUGGCUCCU: 0.312 ratio
AAAACUUUGCAAGAAGAGAUUGAUGCCUUAGAGUCCAGAGUGGCGUCCAUCCAGCGGGUGUCCGCCGACCUGAAGGUGCAGCUAUACGCGAAAUUUGGCAGCAACAUAAACCUCGAGGCA: 0.128 ratio

Sample 3
Target: Sal-like protein 4, full length isoform A (SALL4, Homo sapiens, UniProt Q9UJQ4, residues 1-1053)
Chain of UniProt Q9UJQ4 (whole entry, looked up): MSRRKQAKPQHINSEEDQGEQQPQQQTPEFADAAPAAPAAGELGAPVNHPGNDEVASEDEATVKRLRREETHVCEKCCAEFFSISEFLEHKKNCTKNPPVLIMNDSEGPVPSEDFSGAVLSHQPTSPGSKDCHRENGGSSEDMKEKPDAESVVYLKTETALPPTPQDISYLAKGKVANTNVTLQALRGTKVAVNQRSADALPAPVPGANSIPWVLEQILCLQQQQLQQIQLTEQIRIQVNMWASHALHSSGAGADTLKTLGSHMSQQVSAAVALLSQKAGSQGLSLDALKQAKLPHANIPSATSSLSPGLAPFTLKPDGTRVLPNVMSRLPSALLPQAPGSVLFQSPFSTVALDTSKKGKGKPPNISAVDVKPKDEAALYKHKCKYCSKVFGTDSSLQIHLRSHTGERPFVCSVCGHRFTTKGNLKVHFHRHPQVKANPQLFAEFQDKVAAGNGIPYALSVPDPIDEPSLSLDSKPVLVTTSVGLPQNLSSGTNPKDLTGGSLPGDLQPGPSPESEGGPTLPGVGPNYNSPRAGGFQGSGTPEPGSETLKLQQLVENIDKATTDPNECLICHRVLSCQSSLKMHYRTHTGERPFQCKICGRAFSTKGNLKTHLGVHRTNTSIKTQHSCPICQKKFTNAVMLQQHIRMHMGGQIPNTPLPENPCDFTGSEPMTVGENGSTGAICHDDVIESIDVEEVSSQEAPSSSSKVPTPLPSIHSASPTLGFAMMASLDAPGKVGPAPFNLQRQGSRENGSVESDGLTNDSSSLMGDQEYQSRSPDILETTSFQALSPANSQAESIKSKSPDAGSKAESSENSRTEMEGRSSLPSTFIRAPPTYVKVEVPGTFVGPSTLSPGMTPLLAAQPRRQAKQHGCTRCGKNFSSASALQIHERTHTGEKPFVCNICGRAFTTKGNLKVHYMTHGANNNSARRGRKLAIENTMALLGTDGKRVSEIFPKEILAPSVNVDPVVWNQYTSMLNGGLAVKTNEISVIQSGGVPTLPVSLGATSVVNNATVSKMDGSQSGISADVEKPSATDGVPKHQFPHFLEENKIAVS
Method: universal PBM
Molecule type: double-stranded DNA, one strand shown
Matrix: in vitro
Concentration: 600 nM
Notes: 8-mer, flanks averaged, mean of replicates
Reading: higher = stronger binding
Endpoint: E-score
TGAGAGCA: -0.0352
ATCACTCC: -0.105
CCGAATAC: 0.0228
ACGCCCCG: -0.355
CGTCACTC: -0.202
GTCCTACA: 8.5e-05
AAAGCGAC: -0.103
CATGCTTC: 0.0261
ATCCAAAC: 0.0868
AGCGCCAT: -0.21
CTTAAAGA: 0.0856
CGTCTGAA: -0.063
ATGGCCGC: -0.29
AGAGTGTG: -0.0393
TACATGTA: 0.242
CCAACGGC: -0.331

Sample 4
Target: RNA binding protein fox-1 homolog 2, RRM domain, GST-SBP tag (RBFOX2, Homo sapiens, UniProt O43251-10, residues 100-194)
Method: RNA Bind-n-Seq
Molecule type: RNA
Matrix: in vitro
Concentration: 365 nM
Notes: natural RNA segment, single round, ends assumed
Baseline: no-protein control
Reading: higher = stronger binding
Endpoint: RBNS enrichment (R)
Constant ends, left off below: GGGAGUUCUACAGUCCGACGAUC … UGGAAUUCUCGGGUGCCAA
Residues (chain): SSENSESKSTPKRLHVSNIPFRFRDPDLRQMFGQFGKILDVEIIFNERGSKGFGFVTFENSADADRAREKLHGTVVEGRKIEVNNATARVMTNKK
UGUAUUGGAAGUCAGAUUUCUAGUAGGAAAUGUGGUCAAAUCCCUGUUGGUGAACAAAUGGCCUUUAUUAAGAAAUGGCUGGCUCAGGGUAAGGUCCGAUUCCUACCAGG: 0.608
GGUGGCAAAAACUUGCAAAAAGCAGAUAUACUUUUGCUAAUUUAAGUUGAAGUACUAUGAAUACAACCUGCUAAUCUUGAUCCCCAAAUCUGAGCCCUUCAGUUUCAUAA: 0.257
UGGAGCAUGGCCAAGAGCCAGCUUGCACCACCCACCUGGGAGGCCGAGGAGGAGGUCCCCUGGGCACAGGGCCUCUUUGGGACUUCAGAGGAAAUCUCCCAGUCCCACUC: 0.376
CUGGUACCUGGGGUAGCCGAGGUUGCCUUCCCAUCCCUCCUUCAUCACCGGUGGAGUCCCAGGGUGACAGUCCCAGCCUGCAUUUUUGGUGGAAAAUUAGAUGGAGUGAG: 0.48
GCAGGGUGCGCGAAUGCGCAAGCGCCGGGCAGAGUCCCGUGCGGCUUCUGCUGUGGGACGUGGGCCAGGCACCCUCAUUCUCUGGGCAUCUCUGCUGCAAGUGGACAAGA: 0.295
AGGAUCCCAGCCCUAGAGCUGCAGGGCUGCCCUGUGGGACAGCGCAGCCUAAGCUGAUUUGGAUCUGGGUUUCUCCUCCAGGUAGGGUUGUUUUGUUUCCUUCGCCCUUU: 0.278
AAAGCUUCUUAUAAUCAUUCUUAACUUCUUGGUAGCUAGAAAUUUAGAGUAGUUGAAAUCUUUAGGAAUGAACUUCUGAGGGCCAAAAAAUGUGACUGACGGGAACAAUU: 0.731
AUUUUAGUCUUCAUAGCUAUUGGCUAAGAGAGAUAAUGAGCUGAUGGUCUAUUUUAACCUUGAAAGUAAAAAUGUAUAUUUUUUCACUACAAGUACAUUGAACAGUAAAA: 0.307

For quick reference, copied from above (sample 4):
AAAGCUUCUUAUAAUCAUUCUUAACUUCUUGGUAGCUAGAAAUUUAGAGUAGUUGAAAUCUUUAGGAAUGAACUUCUGAGGGCCAAAAAAUGUGACUGACGGGAACAAUU: 0.731
UGGAGCAUGGCCAAGAGCCAGCUUGCACCACCCACCUGGGAGGCCGAGGAGGAGGUCCCCUGGGCACAGGGCCUCUUUGGGACUUCAGAGGAAAUCUCCCAGUCCCACUC: 0.376
AUUUUAGUCUUCAUAGCUAUUGGCUAAGAGAGAUAAUGAGCUGAUGGUCUAUUUUAACCUUGAAAGUAAAAAUGUAUAUUUUUUCACUACAAGUACAUUGAACAGUAAAA: 0.307
GCAGGGUGCGCGAAUGCGCAAGCGCCGGGCAGAGUCCCGUGCGGCUUCUGCUGUGGGACGUGGGCCAGGCACCCUCAUUCUCUGGGCAUCUCUGCUGCAAGUGGACAAGA: 0.295
AGGAUCCCAGCCCUAGAGCUGCAGGGCUGCCCUGUGGGACAGCGCAGCCUAAGCUGAUUUGGAUCUGGGUUUCUCCUCCAGGUAGGGUUGUUUUGUUUCCUUCGCCCUUU: 0.278
UGUAUUGGAAGUCAGAUUUCUAGUAGGAAAUGUGGUCAAAUCCCUGUUGGUGAACAAAUGGCCUUUAUUAAGAAAUGGCUGGCUCAGGGUAAGGUCCGAUUCCUACCAGG: 0.608
